Measurements gathered from unrelated publications.
A part holds a random share of what one study measured.
UniProt O15146, sequence (whole entry, looked up): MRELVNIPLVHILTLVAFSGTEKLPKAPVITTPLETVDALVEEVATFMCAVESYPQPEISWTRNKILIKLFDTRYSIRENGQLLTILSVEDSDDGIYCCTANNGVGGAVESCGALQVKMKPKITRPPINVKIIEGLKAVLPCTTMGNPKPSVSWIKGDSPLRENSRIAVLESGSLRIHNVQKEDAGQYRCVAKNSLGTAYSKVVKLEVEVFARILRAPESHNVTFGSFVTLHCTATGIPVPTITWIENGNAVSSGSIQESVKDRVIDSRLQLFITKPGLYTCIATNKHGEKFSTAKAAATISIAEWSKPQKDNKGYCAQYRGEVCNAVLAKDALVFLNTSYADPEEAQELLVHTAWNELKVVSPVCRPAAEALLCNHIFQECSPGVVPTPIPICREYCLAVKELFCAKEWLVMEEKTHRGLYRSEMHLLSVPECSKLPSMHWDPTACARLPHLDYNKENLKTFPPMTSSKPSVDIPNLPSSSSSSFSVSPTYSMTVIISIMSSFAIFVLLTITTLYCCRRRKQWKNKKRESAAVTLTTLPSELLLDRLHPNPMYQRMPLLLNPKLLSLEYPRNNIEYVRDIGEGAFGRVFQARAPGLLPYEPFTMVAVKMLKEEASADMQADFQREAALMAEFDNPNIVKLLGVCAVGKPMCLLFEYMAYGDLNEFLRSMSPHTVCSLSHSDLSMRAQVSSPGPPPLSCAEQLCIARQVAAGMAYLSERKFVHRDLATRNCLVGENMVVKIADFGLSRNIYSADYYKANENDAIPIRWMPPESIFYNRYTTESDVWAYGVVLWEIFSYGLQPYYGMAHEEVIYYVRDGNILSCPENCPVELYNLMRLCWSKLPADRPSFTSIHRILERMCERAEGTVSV
UniProt Q9H2K8, sequence (whole entry, looked up): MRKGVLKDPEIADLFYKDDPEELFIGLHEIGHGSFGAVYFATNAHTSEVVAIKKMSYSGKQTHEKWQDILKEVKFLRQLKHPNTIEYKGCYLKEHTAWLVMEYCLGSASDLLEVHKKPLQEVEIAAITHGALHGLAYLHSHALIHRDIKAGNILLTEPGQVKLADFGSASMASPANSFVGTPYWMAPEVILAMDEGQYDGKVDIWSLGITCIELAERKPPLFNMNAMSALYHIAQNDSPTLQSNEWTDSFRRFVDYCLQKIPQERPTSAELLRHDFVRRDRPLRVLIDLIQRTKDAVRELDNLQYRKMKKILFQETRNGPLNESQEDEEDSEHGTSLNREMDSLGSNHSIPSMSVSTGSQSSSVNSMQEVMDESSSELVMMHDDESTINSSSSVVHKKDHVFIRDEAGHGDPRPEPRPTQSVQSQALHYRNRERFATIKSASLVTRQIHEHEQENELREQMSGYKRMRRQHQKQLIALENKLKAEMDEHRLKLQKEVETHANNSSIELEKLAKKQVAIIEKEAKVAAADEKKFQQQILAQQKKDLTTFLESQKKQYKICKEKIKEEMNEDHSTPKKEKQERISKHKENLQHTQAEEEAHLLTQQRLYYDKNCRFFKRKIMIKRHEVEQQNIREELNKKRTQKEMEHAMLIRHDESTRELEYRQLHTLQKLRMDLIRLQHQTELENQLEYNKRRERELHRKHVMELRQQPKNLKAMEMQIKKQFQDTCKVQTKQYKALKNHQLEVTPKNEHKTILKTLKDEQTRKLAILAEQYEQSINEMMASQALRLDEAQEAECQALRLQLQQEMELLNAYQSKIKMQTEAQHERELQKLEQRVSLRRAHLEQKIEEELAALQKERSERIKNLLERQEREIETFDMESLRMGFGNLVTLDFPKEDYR
UniProt O00506, sequence (whole entry, looked up): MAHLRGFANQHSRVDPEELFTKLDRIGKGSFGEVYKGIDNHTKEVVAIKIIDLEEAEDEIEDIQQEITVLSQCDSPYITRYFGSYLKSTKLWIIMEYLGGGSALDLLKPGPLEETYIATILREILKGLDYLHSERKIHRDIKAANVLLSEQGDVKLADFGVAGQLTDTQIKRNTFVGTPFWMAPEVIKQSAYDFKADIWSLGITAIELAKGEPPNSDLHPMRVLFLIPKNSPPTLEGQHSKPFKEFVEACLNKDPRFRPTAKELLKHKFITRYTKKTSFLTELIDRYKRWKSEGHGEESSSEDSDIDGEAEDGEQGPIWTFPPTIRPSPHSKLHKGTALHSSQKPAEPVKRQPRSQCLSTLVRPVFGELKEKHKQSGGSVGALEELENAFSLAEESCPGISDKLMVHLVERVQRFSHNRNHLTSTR
UniProt P37023, sequence (whole entry, looked up): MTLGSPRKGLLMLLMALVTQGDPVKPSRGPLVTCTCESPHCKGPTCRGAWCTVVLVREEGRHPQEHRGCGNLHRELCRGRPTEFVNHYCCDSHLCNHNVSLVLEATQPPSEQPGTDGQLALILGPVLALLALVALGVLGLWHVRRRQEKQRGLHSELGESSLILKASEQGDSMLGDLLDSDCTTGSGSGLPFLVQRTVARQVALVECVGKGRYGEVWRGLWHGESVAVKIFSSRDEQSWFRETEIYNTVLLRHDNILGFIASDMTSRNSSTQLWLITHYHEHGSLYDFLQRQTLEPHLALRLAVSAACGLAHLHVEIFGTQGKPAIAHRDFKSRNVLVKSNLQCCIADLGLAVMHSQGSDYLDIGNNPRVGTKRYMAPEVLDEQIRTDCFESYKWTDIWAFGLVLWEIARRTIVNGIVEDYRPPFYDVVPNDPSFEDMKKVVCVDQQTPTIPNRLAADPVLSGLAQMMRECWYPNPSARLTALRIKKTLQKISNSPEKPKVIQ
UniProt P42679, sequence (whole entry, looked up): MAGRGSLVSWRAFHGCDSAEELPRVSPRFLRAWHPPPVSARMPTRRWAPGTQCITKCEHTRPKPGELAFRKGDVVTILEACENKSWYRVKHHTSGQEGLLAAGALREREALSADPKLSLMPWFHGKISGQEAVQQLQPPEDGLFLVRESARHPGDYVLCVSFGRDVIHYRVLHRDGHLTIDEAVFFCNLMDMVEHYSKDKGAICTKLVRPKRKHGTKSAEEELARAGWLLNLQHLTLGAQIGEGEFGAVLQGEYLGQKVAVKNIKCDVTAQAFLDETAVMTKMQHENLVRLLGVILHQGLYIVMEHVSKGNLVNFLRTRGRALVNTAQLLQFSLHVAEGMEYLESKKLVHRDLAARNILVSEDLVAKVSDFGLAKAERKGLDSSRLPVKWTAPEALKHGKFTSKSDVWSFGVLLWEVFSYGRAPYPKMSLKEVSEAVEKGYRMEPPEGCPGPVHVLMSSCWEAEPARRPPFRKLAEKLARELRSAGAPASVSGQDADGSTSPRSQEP
UniProt P51817, sequence (whole entry, looked up): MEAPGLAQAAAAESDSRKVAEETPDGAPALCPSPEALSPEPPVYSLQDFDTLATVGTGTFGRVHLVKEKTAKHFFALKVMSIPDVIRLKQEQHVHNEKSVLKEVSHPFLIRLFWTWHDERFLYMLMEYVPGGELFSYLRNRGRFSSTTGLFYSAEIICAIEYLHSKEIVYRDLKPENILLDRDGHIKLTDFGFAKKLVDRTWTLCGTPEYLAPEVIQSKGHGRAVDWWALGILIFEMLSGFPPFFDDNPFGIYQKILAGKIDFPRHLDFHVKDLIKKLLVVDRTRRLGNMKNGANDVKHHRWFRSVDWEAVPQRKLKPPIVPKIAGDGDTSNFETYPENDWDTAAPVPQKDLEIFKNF

Study 1
SMILES: Nc1[nH]nc2nnc(-c3c(-c4ccccc4)nn4ccccc34)cc12
Read-out: enzyme activity
Action: inhibitor
Concentration: 0.5 µM
Reference: control
Measurement: remaining activity
cAMP-dependent protein kinase catalytic subunit PRKX (PRKX, Homo sapiens, UniProt P51817): 101%
Cyclin-dependent kinase 3, with cyclin E (CDK3, Homo sapiens, UniProt Q00526): 96.8%
Serine/threonine-protein kinase 25 (STK25, Homo sapiens, UniProt O00506): 84.2%
MAP/microtubule affinity-regulating kinase 3 (MARK3, Homo sapiens, UniProt P27448): 99.3%
Proto-oncogene tyrosine-protein kinase Src (SRC, Homo sapiens, UniProt P12931): 100%
LIM domain kinase 1 (LIMK1, Homo sapiens, UniProt P53667): 98.2%
PAS domain-containing serine/threonine-protein kinase (PASK, Homo sapiens, UniProt Q96RG2): 99.8%
Homeodomain-interacting protein kinase 1 (HIPK1, Homo sapiens, UniProt Q86Z02): 99.7%
Serine/threonine-protein kinase TAO3 (TAOK3, Homo sapiens, UniProt Q9H2K8): 101%
Serine/threonine-protein kinase N1 (PKN1, Homo sapiens, UniProt Q16512): 98.2%
Insulin receptor (INSR, Homo sapiens, UniProt P06213): 78.3%
Megakaryocyte-associated tyrosine-protein kinase (MATK, Homo sapiens, UniProt P42679): 95.6%
Vascular endothelial growth factor receptor 3 (FLT4, Homo sapiens, UniProt P35916): 89.9%
RAC-alpha serine/threonine-protein kinase (AKT1, Homo sapiens, UniProt P31749): 98%
ALK tyrosine kinase receptor (ALK, Homo sapiens, UniProt Q9UM73): 108%
Tyrosine-protein kinase Fgr (FGR, Homo sapiens, UniProt P09769): 92.9%
Serine/threonine-protein kinase MRCK alpha (CDC42BPA, Homo sapiens, UniProt Q5VT25): 89.7%
Serine/threonine-protein kinase NLK (NLK, Homo sapiens, UniProt Q9UBE8): 102%
Serine/threonine-protein kinase Nek11 (NEK11, Homo sapiens, UniProt Q8NG66): 95.1%
Tyrosine-protein kinase Fer (FER, Homo sapiens, UniProt P16591): 90.8%
Tyrosine-protein kinase ITK/TSK (ITK, Homo sapiens, UniProt Q08881): 90.8%
Tyrosine-protein kinase Fyn (FYN, Homo sapiens, UniProt P06241): 95%

Study 2
Compound: O=C(Nc1cccnn1)N1CCC(=Cc2cccc(Oc3ccc(C(F)(F)F)cn3)c2)CC1
Read-out: cell-free assay
Method: competition with immobilised ligand
Concentration: 1 µM
Measurement: remaining binding
Serine/threonine-protein kinase PLK4 (PLK4, Homo sapiens, UniProt O00444): 100%
Leucine-rich repeat serine/threonine-protein kinase 2 (LRRK2, Homo sapiens, UniProt Q5S007): 99%
STE20-like serine/threonine-protein kinase (SLK, Homo sapiens, UniProt Q9H2G2): 74%
Muscle, skeletal receptor tyrosine-protein kinase (MUSK, Homo sapiens, UniProt O15146): 100%
Activin receptor type-1-like (ACVRL1, Homo sapiens, UniProt P37023): 77%
Fibroblast growth factor receptor 3 (FGFR3, Homo sapiens, UniProt P22607): 83%
Serine/threonine-protein kinase Nek2 (NEK2, Homo sapiens, UniProt P51955): 100%
Serine/threonine-protein kinase ULK1 (ULK1, Homo sapiens, UniProt O75385): 84%
Receptor-type tyrosine-protein kinase FLT3 (FLT3, Homo sapiens, UniProt P36888, F691L/ITD): 100%
Phosphatidylinositol 5-phosphate 4-kinase type-2 gamma (PIP4K2C, Homo sapiens, UniProt Q8TBX8): 75%
Eukaryotic translation initiation factor 2-alpha kinase 1 (EIF2AK1, Homo sapiens, UniProt Q9BQI3): 100%

Study 3
SMILES: C=CC(=O)N1CCC[C@@H](n2nc(-c3ccc(Oc4ccccc4)cc3)c3c(N)ncnc32)C1
Action: inhibitor
Concentration: 1 µM
Measurement: inhibition
5'-AMP-activated protein kinase catalytic subunit alpha-1 (PRKAA1, Homo sapiens, UniProt Q13131): 4%
Uncharacterized serine/threonine-protein kinase SBK3 (SBK3, Homo sapiens, UniProt P0C264); enzyme activity: 0%
Ephrin type-B receptor 1 (EPHB1, Homo sapiens, UniProt P54762); enzyme activity: 4%
Discoidin domain-containing receptor 2 (DDR2, Homo sapiens, UniProt Q16832): 3%
Phosphatidylinositol 4-phosphate 5-kinase type-1 gamma (PIP5K1C, Homo sapiens, UniProt O60331): 0%
Serine/threonine-protein kinase MRCK gamma (CDC42BPG, Homo sapiens, UniProt Q6DT37): 15%
Tyrosine-protein kinase ABL1, phosphorylated (ABL1, Homo sapiens, UniProt P00519, T315I): 3%
STE20/SPS1-related proline-alanine-rich protein kinase (STK39, Homo sapiens, UniProt Q9UEW8); enzyme activity: 1%
Tyrosine-protein kinase FRK (FRK, Homo sapiens, UniProt P42685); enzyme activity: 92%
Protein kinase C iota type (PRKCI, Homo sapiens, UniProt P41743); enzyme activity: 46%

Study 4
Target: Calcium/calmodulin-dependent protein kinase type II subunit alpha (CAMK2A, Homo sapiens, UniProt Q9UQM7)
UniProt Q9UQM7, sequence (whole entry, looked up): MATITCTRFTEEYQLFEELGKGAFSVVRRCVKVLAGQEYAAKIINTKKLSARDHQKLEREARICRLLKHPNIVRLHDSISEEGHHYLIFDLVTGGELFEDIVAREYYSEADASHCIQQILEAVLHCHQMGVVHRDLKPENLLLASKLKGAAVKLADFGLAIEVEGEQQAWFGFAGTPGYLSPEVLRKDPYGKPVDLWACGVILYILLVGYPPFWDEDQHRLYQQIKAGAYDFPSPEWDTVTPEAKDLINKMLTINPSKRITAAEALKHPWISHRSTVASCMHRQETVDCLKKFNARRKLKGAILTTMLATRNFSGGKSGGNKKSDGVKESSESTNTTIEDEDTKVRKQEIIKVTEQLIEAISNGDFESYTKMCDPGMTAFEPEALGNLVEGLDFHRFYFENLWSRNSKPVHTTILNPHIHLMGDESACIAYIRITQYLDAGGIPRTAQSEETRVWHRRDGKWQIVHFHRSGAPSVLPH
Read-out: enzyme activity
Action: inhibitor
Concentration: 10 µM
Measurement: inhibition
Nc1ccncc1O: 23%
C=C1CC[C@@H]2[C@](C)(CO)[C@H](O)CC[C@@]2(C)[C@@H]1/C=C/C1=CCOC1=O: 7%
COc1ccc(NC(=O)c2ccc(C(=N)N(C)C)cc2)c(C(=O)Nc2ccc(Cl)cn2)c1: 2%
CC1=C(/C=C/C(C)=C/C=C/C(C)=C/C(=O)O)C(C)(C)CCC1: 4%
CCCCC[C@H](O)CC(=O)CCc1ccc(O)c(OC)c1: 10%
CC(C)CCC[C@@H](C)[C@H]1CC[C@H]2[C@@H]3CC[C@H]4C[C@@H](O)CC[C@]4(C)[C@H]3CC[C@]12C: 6%
CC1(C)OC(c2ccc(S(N)(=O)=O)cc2)=C(c2cccc(F)c2)C1=O: 3%
O=C(/C=C/c1ccc(O)cc1)c1ccc(O)cc1O: 13%
COc1ccc([C@@H]2CC(=O)c3c(O)cc(O[C@@H]4O[C@H](CO)[C@@H](O)[C@H](O)[C@H]4O[C@@H]4O[C@@H](C)[C@H](O)[C@@H](O)[C@H]4O)cc3O2)cc1: -26%
C[C@H]1CC[C@@]2(OC1)O[C@H]1C[C@H]3[C@@H]4CC[C@@H]5C[C@@H](O[C@@H]6O[C@H](CO)[C@H](O)[C@H](O)[C@H]6O)CC[C@]5(C)[C@H]4CC[C@]3(C)[C@H]1[C@@H]2C: -20%
COC(=O)C[C@](O)(CCCC(C)(C)O)C(=O)O[C@@H]1C(OC)=C[C@]23CCCN2CCc2cc4c(cc2[C@H]13)OCO4: -1%
CCCCC(CC)CCC(=O)O (stereo not shown): 22%
